Measured values collected from several papers.
Parts stem from different laboratories: compare values within a part only.
Sequence of UniProt Q9C0B0 (30-357, looked up): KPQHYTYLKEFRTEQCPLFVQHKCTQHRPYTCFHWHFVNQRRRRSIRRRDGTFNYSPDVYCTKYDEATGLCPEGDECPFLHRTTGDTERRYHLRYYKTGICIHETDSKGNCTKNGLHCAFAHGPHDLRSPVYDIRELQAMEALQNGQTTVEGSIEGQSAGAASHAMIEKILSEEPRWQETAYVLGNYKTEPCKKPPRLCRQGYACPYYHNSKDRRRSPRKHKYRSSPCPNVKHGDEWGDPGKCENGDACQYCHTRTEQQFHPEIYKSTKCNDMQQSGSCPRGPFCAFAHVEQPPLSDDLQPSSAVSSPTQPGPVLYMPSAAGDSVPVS

Sample 1 — technique: protein binding microarray; form: double-stranded DNA, one strand shown; sample: in vitro; tested at: not given; relative to: not given; direction: higher = stronger binding
Target: Histone acetyltransferase KAT6A, winged helix 2, GST fusion (KAT6A, Homo sapiens, UniProt Q92794, residues 85-181)
Notes: 8-mer, flanks averaged, mean of 2 arrays, mostly near background
Target sequence (chain): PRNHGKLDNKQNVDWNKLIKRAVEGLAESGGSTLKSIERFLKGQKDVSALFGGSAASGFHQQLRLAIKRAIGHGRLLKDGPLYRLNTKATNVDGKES
Sequence	E-score
AGGGTGTA	0.00507
ACACCTAC	-0.23
GCGCTACC	0.0132
ATGAGTTA	-0.218

Further values, each from its own experiment
SALL4 full length isoform B: Sal-like protein 4, full length isoform B (SALL4, Homo sapiens, UniProt Q9UJQ4-2, residues 1-616)
Substance	target	test	test system	conditions	scale	endpoint	value
GCTAGCCA	SALL4 full length isoform B	universal PBM	double-stranded DNA, one strand shown, in vitro	not given, 8-mer, flanks averaged, mean of replicates	higher = stronger binding	E-score	-0.234
PhoQ, residues 284 288 289 292 302 303 TSTLRA	PhoP, residues 12 14 15 18 19 TQALL (Escherichia coli, UniProt P23836)	Sort-seq, refers to: YFP reporter	E. coli	PhoQ-PhoP variant library, together with: 10 µM Mg2+	relative to: high Mg2+ state, higher = stronger signaling	fold induction	13.3
GGGAGUUCUACAGUCCGACGAUCUUGAGAACAGCUCUCCAAACCGGAACCGCCGUAAAAAAAAUAAGCAAAAUGAUAUUUGUACCGAAAAAACAGAAGUUAAAUCAUGUAAAGUAAAUGCUGCCAACCUUCCAGGUCCUAAAGCAACAGAGGAUUGAGCAUCA	RING finger protein unkempt homolog, zinc fingers 1-6, SBP tag (UNK, Homo sapiens, UniProt Q9C0B0, residues 30-357)	RNA Bind-n-Seq	RNA, in vitro	100 nM, RNA with constant flanks, ends assumed	relative to: input RNA pool, higher = stronger binding	bound/input enrichment	0.471 ratio
CACAGGCG	SALL4 full length isoform B	universal PBM	double-stranded DNA, one strand shown, in vitro	not given, 8-mer, flanks averaged, mean of replicates	higher = stronger binding	E-score	-0.121

Repeated from above (sample 1):
Sequence	E-score
AGGGTGTA	0.00507
